Assay results from different studies.
Each numbered part is a random draw from the data of one study; scales do not carry over between parts. Substitutions count along the parent as printed.

Sample 1
Target: Histone acetyltransferase KAT6A, both winged helices, GST fusion (KAT6A, Homo sapiens, UniProt Q92794, residues 1-181)
Technique: protein binding microarray
Form: double-stranded DNA, one strand shown
Matrix: in vitro
Concentration: not given
Notes: 8-mer, flanks averaged, mean of 2 arrays, mostly near background
Reference: not given
Direction: higher = stronger binding
Residues (chain): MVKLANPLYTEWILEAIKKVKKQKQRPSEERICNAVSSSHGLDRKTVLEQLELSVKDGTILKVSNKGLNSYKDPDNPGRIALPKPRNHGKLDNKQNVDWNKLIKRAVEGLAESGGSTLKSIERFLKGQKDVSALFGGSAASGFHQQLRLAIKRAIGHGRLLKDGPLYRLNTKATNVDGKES
Oligonucleotide | E-score
CAGCCATG | -0.155
CTAGTTGA | -0.161
AGCCGTGA | 0.282
CACGGACC | 0.266
ACTGCGAA | 0.0529
AGTATCAT | -0.0391
TACACAGA | -0.104
AATGATGC | -0.0175
CTGCTTCA | -0.16
ACTTCACG | 0.0773
AATCACGG | 0.258
ACAAGCTC | -0.142
GTGACGAA | 0.0345
ACGGCGCC | 0.325
AATTACCC | -0.0876
CCAATTGC | 0.0382
ATAACCCA | -0.168
GCCTGTGA | -0.0618
CAACTGCC | 0.124
GTCTCGTA | -0.192
CTCCAGAC | -0.133
AAGGCCGG | 0.218
CTATCGAC | 0.00415
ACATTACT | -0.0624

Sample 2
Target: Max dimerization protein 1, bHLH-zipper, MAX partner unstated (MXD1, Homo sapiens, UniProt Q05195, residues 56-136)
Technique: protein-binding microarray
Form: double-stranded DNA, one strand shown
Matrix: in vitro
Concentration: not given
Notes: k-mer, scored over probes, only values ≥0.25
Direction: higher = stronger binding
Construct (chain): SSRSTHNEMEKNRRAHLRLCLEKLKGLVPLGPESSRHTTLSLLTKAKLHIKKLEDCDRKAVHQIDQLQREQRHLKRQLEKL
Oligonucleotide | E-score
ACGCGGTA | 0.303
CGTGAATA | 0.258
AAGCGTGA | 0.363
ACTCATGC | 0.329
CCCATCCC | 0.266
CCTCACGC | 0.294
ACCCTCGT | 0.256
ACATGAGA | 0.345
AACGTGTA | 0.326
AATGTGTG | 0.274
ATCATGCA | 0.269
CCACCACG | 0.32
ACACGCCG | 0.372
GGGGACCA | 0.265
CGCATGGA | 0.349
ACATGGCG | 0.37
AAGCACGA | 0.305

Sample 3
Target: Interferon regulatory factor 7, full length, phosphomimetic (IRF7, Homo sapiens, UniProt Q92985, residues 1-503, S471D/S472D/S475D/S476D/S477D/S483D/S484D/S487D)
Technique: protein-binding microarray
Form: double-stranded DNA, one strand shown
Matrix: in vitro
Concentration: 2200 nM top
Notes: 60-bp whole probe
Together with: salmon DNA 0.4 mg/ml
Reference: random background probes
Direction: higher = stronger binding
All sequences stand within: GCCTAGCAC … GTCTTGATTCGCTTGACGCTGCTG
Target sequence (chain): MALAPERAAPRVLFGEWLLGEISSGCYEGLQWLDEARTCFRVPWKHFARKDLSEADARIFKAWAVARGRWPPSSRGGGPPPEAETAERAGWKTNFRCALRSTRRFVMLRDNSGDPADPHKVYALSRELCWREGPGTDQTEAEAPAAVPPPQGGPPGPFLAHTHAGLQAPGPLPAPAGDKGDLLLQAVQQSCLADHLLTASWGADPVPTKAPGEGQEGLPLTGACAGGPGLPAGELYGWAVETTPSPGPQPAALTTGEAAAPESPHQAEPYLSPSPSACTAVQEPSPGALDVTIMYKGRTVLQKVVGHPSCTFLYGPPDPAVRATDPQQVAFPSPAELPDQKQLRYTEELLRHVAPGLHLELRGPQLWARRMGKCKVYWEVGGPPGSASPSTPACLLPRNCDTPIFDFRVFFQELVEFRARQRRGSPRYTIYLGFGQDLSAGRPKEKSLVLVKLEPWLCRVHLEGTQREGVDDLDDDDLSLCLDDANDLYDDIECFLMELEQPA
Oligonucleotide | fitted relative affinity
TGCACTCTTTACATGGGTTTGTGCTAG | 1.18 z-score
TCATGAATGTGTCTTAAACTGTGCTAG | 0.375 z-score
TACGGTCTCGGTATCGGGACGTGCTAG | 0.446 z-score
TTAGGCTTCGACTATCGGTTAGTGCTA | -0.185 z-score
GACAGTCTCGGTATCGGGACGTGCTAG | 0.563 z-score
ATAATTTTTCTAGTGGTTGCGTGCTAG | 1.21 z-score
CATCCGTTTCTTCTAGACTTGTGCTAG | 2.92 z-score
GGCCTTGGAGGGGGTGGGTGGTGCTAG | 0.258 z-score
TCCATTTTCTAAATGCCCTAGTGCTAG | 3.92 z-score
CCACTCTTCCTTTACTTTCTGTGCTAG | 2.92 z-score
GACAGACTGGGGACTGGGGACGTGCTA | -0.257 z-score
GACGCTATCAGTATCGAGACGTGCTAG | 0.432 z-score
GACGCTTTCCTACTGCTGACGTGCTAG | 2.71 z-score
GACGGACTGCTTCTCCTGGCGTGCTAG | 0.296 z-score
TTAGGACTGGAATATCGGTTAGTGCTA | -0.367 z-score
TTAGGTTTCATACTGCTTTAGTGCTAG | 1.79 z-score
TTAGAACTGAGTTTCGATAAGTGCTAG | 1.19 z-score
TTAGGTTTCGACGCTGGGTTAGTGCTA | 1.48 z-score

Sample 4
Target: CCNB1, cyclin fold, Cln2 fusion (human)
Technique: yeast growth competition, sequencing
Matrix: yeast
Notes: weak parent motif
Reference: not given
Direction: higher = stronger binding
Starting sequence: ORC1 docking peptide (human); PRARKRLELGNLG
Substitution | normalised enrichment score
P1E | 0.435
R6C | 0.916
L7H | 1.21
G10A | 0.253
N11H | 0.775
L9E | 0.163
R6M | 0.812
R4H | 0.968
R2K | 0.255
G10Q | 0.31
R6Q | 0.488
G10N | 0.4
L12F | 0.725
R6H | 0.614
R6G | 1.47
G13H | 0.852
L9R | 1.1

Sample 5
Target: UBE2H UBC core domain (UniProt P62256)
Sequence of UniProt P62256 (whole entry, looked up): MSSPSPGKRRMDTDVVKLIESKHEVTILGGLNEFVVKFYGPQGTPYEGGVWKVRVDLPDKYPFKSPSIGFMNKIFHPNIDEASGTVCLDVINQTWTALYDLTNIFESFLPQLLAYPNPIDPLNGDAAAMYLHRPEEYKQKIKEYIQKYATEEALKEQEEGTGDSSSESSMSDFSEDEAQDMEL
Technique: yeast two-hybrid
Matrix: yeast
Notes: mostly zero background
Reference: not given
Direction: higher = stronger interaction
B1: ANAPC11 RING domain (UniProt Q9NYG5); chain GICRMAFNGCCPDCKVPGDDCPLVWGQCSHCFHMHCILKWLHAQQVQQHCPMCRQEWKFKE
B2: RNF31 RING domain (UniProt Q96EP0); chain AFLRRLLAQECAVCGWALPHNRMQALTSCECTICPDCFRQHFTIALKEKHITDMVCPACGRPDLTDDTQLL
B3: RNF187 RING domain (UniProt Q5TA31); chain ALPAGPAEAACALCQRAPREPVRADCGHRFCRACVVRFWAEEDGPFPCPECADDCWQRAVEP
B4: TRIM37 RING domain (UniProt O94972); chain SVESIAEVFRCFICMEKLRDARLCPHCSKLCCFSCIRRWLTEQRAQCPHCRAPLQLRELVN
B5: TRIM31 RING domain (UniProt Q9BZY9); chain FVNKLQEEVICPICLDILQKPVTIDCGHNFCLKCITQIGETSCGFFKCPLCKTSVRKNAIRF
B6: RLIM RING domain (UniProt Q9NVW2); chain SFGENDALKTCSVCITEYTEGNKLRKLPCSHEYHVHCIDRWLSENSTCPICRRAVLASGNRE
B7: TRIM22 RING domain (UniProt Q8IYM9); chain VKVDIEKEVTCPICLELLTEPLSLDCGHSFCQACITAKIKESVIISRGESSCPVCQTRFQPGNLRP
B8: TRIM60 RING domain (UniProt Q495X7); chain ALVNLQEESSCPICLEYLKDPVTINCGHNFCRSCLSVSWKDLDDTFPCPVCRFCFPYKSFRR
B9: MKRN2 RING domain (UniProt Q9H000); chain FAFQASQDKVCSICMEVILEKASASERRFGILSNCNHTYCLSCIRQWRCAKQFENPIIKSCPECRVISEFVIPSV
Sequence | lacZ reporter activity
AEADPLGRFTCPVCLEVYEKPVQVPCGHVFCSACLQECLKPKKPVCGVCRSALAPGVRAV (RNF114 RING domain (UniProt Q9Y508)) | 0
B1 (ANAPC11 RING domain) | 0
B2 (RNF31 RING domain) | 0
B3 (RNF187 RING domain) | 0
B4 (TRIM37 RING domain) | 0
B5 (TRIM31 RING domain) | 0
PEELAVNNDDCAICWDSMQAARKLPCGHLFHNSCLRSWLEQDTSCPTCRMSLNIADNNR (AMFR RING domain (UniProt Q9UKV5)) | 0
B6 (RLIM RING domain) | 0
B7 (TRIM22 RING domain) | 0
QVQSRTKIEECVVCSDKKAAVLFQPCGHMCACENCANLMKKCVQCRAVVERRVPFI (MIB1 RING domain (UniProt Q86YT6)) | 0
B8 (TRIM60 RING domain) | 0
LGTKLEAKYLCSACRNVLRRPFQAQCGHRYCSFCLASILSSGPQNCAACVHEGIYEEGIS (TRAF2 RING domain (UniProt Q12933)) | 0
FVKTVEDKYKCEKCHLVLCSPKQTECGHRFCESCMAALLSSSSPKCTACQESIVKDKVF (TRAF3 RING domain (UniProt Q13114)) | 0
B9 (MKRN2 RING domain) | 0
YPEEVDDDLICHICLQALLDPLDTPCGHTYCTLCLTNFLVEKDFCPMDRKPLVLQHCKK (LNX1 RING domain (UniProt Q8TBB1)) | 0

Sample 6
Target: ABI1, truncated, D143A, DHFR fusion (Arabidopsis thaliana)
Technique: DHFR PCA, deep sequencing
Matrix: yeast
Notes: methotrexate growth selection, single substitutions
Together with: (+)-ABA 1.4 µM
Reference: wild-type fitted maximum
Direction: higher = stronger binding
Starting sequence: PYL1, truncated, DHFR fusion (Arabidopsis thaliana); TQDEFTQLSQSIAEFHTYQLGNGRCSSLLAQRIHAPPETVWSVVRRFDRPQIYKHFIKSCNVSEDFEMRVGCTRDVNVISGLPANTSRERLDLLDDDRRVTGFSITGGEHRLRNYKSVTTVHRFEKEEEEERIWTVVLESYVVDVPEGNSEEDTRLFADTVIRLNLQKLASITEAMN; partner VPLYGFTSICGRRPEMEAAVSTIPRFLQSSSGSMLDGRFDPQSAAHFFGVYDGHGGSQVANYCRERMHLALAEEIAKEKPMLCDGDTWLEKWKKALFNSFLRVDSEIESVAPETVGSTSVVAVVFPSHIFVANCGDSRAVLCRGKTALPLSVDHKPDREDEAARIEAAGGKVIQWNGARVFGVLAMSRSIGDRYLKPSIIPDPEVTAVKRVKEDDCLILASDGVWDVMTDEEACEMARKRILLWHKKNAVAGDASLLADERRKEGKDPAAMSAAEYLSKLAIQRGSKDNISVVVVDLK
Substitution | relative binding score
S11W | 55.5%
S27F | -13.4%
G21M | 39.1%
V100Q | -2.5%
I162T | 13.7%
D3T | 42.5%
S150N | 39.9%
L156A | 52.5%
G148M | -23.1%
T135C | 37.4%
T73E | 63.2%
Q19R | 58.3%
V145D | -16.9%
R88Q | 62.4%

Repeated from above (sample 1):
Oligonucleotide | E-score
CTAGTTGA | -0.161
CAGCCATG | -0.155
AGTATCAT | -0.0391
ACTGCGAA | 0.0529
ACAAGCTC | -0.142
GTGACGAA | 0.0345
